Experimental data collected from several papers.
Numbered parts are unrelated; each lists some results of a single study. Several values in a cell are separate wells, animals, samples, runs or records.
Chain of UniProt P11362 (whole entry, looked up): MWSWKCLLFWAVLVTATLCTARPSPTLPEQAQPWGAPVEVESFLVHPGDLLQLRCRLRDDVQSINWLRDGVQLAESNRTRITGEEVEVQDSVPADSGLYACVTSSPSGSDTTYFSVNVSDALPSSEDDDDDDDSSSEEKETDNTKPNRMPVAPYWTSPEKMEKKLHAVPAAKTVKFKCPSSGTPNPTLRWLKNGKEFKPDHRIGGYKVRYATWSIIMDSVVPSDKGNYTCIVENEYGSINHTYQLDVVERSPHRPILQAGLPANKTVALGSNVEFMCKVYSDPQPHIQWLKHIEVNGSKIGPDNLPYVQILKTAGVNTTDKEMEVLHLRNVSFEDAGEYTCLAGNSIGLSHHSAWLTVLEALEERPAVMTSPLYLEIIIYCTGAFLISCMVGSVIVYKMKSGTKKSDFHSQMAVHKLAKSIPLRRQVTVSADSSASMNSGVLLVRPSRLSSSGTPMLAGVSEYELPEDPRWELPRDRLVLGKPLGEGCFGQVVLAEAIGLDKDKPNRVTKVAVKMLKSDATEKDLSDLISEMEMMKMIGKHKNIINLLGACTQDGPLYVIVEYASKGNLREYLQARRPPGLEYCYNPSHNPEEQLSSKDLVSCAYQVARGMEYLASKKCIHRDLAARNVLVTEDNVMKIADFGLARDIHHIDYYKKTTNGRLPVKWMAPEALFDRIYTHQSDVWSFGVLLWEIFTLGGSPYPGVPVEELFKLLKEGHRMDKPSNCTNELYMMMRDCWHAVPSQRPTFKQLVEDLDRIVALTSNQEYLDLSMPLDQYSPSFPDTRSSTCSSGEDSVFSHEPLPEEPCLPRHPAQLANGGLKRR
Chain of UniProt P31749 (whole entry, looked up): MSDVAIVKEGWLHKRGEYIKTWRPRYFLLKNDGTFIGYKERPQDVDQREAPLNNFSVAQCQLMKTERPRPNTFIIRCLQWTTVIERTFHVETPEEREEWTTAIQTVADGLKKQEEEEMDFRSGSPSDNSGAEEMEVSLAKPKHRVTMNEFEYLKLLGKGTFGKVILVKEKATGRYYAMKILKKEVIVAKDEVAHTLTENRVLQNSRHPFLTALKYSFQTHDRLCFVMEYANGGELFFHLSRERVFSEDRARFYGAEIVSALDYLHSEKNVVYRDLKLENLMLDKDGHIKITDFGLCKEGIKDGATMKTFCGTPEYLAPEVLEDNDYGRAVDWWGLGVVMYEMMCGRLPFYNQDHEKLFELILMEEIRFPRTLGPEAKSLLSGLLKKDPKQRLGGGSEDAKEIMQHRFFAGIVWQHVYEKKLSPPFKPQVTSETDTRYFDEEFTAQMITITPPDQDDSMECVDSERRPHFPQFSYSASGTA

Sample 1 — concentration: 1 µM; endpoint: remaining binding
SMILES: CC[C@@]1(c2ccccc2)C2=C(CC(C)(C)CC2=O)Nc2n[nH]cc21
Receptor tyrosine-protein kinase erbB-4 (ERBB4, Homo sapiens, UniProt Q15303); binding, competition with immobilised ligand: 88%
Mitogen-activated protein kinase kinase kinase kinase 5 (MAP4K5, Homo sapiens, UniProt Q9Y4K4); binding, competition with immobilised ligand: 100%
Macrophage-stimulating protein receptor (MST1R, Homo sapiens, UniProt Q04912); binding, competition with immobilised ligand: 66%
Mitogen-activated protein kinase kinase kinase kinase 4 (MAP4K4, Homo sapiens, UniProt O95819); binding, competition with immobilised ligand: 100%
Tyrosine-protein kinase ABL1, non-phosphorylated (ABL1, Homo sapiens, UniProt P00519, T315I); kinase binding, KINOMEscan; relative to: DMSO control: 100%
Epidermal growth factor receptor (EGFR, Homo sapiens, UniProt P00533, del752-759); binding, competition with immobilised ligand: 100%
Serine/threonine-protein kinase PRP4 homolog (PRPF4B, Homo sapiens, UniProt Q13523); binding, competition with immobilised ligand: 70%
Serine/threonine-protein kinase Nek10 (NEK10, Homo sapiens, UniProt Q6ZWH5); binding, competition with immobilised ligand: 100%
Mitogen-activated protein kinase 14 (MAPK14, Homo sapiens, UniProt Q16539); kinase binding, KINOMEscan; relative to: DMSO control: 100%
Proto-oncogene tyrosine-protein kinase receptor Ret (RET, Homo sapiens, UniProt P07949, V804M); binding, competition with immobilised ligand: 98%
Phosphatidylinositol 4,5-bisphosphate 3-kinase catalytic subunit gamma isoform (PIK3CG, Homo sapiens, UniProt P48736); kinase binding, KINOMEscan; relative to: DMSO control: 100%
Mitogen-activated protein kinase kinase kinase 13 (MAP3K13, Homo sapiens, UniProt O43283); kinase binding, KINOMEscan; relative to: DMSO control: 100%
Hepatocyte growth factor receptor (MET, Homo sapiens, UniProt P08581, M1250T); kinase binding, KINOMEscan; relative to: DMSO control: 100%
RAC-alpha serine/threonine-protein kinase (AKT1, Homo sapiens, UniProt P31749); kinase binding, KINOMEscan; relative to: DMSO control: 100%
Mitogen-activated protein kinase kinase kinase kinase 1 (MAP4K1, Homo sapiens, UniProt Q92918); binding, competition with immobilised ligand: 72%
Serine/threonine-protein kinase Nek2 (NEK2, Homo sapiens, UniProt P51955); binding, competition with immobilised ligand: 89%
Mitotic checkpoint serine/threonine-protein kinase BUB1 (BUB1, Homo sapiens, UniProt O43683); binding, competition with immobilised ligand: 100%
Serine/threonine-protein kinase PAK 5 (PAK5, Homo sapiens, UniProt Q9P286); kinase binding, KINOMEscan; relative to: DMSO control: 88%
Receptor-interacting serine/threonine-protein kinase 4 (RIPK4, Homo sapiens, UniProt P57078); kinase binding, KINOMEscan; relative to: DMSO control: 97%

Sample 2 — observed: thermal unfolding; technique: differential scanning fluorimetry; concentration: 5.5 µM; reading: higher = more unfolded; endpoint: SYPRO Orange fluorescence
SMILES: C[C@@H]1CN(c2ccc(-c3cc(C(=O)NCCOCCOCCOCCOCCOCCOCCNC(=O)/C=C/c4[nH]cc(C(=O)N[C@@H](CC(N)=O)c5ccc(F)c(Cl)c5)c4-c4ccc(Cl)cc4F)ccc3F)cc2NC(=O)c2ccc(F)cc2C(F)(F)F)C[C@H](C)N1C
DCAF1: DDB1- and CUL4-associated factor 1 (DCAF1, Homo sapiens, UniProt Q9Y4B6)
Chain of UniProt Q9Y4B6 (whole entry, looked up): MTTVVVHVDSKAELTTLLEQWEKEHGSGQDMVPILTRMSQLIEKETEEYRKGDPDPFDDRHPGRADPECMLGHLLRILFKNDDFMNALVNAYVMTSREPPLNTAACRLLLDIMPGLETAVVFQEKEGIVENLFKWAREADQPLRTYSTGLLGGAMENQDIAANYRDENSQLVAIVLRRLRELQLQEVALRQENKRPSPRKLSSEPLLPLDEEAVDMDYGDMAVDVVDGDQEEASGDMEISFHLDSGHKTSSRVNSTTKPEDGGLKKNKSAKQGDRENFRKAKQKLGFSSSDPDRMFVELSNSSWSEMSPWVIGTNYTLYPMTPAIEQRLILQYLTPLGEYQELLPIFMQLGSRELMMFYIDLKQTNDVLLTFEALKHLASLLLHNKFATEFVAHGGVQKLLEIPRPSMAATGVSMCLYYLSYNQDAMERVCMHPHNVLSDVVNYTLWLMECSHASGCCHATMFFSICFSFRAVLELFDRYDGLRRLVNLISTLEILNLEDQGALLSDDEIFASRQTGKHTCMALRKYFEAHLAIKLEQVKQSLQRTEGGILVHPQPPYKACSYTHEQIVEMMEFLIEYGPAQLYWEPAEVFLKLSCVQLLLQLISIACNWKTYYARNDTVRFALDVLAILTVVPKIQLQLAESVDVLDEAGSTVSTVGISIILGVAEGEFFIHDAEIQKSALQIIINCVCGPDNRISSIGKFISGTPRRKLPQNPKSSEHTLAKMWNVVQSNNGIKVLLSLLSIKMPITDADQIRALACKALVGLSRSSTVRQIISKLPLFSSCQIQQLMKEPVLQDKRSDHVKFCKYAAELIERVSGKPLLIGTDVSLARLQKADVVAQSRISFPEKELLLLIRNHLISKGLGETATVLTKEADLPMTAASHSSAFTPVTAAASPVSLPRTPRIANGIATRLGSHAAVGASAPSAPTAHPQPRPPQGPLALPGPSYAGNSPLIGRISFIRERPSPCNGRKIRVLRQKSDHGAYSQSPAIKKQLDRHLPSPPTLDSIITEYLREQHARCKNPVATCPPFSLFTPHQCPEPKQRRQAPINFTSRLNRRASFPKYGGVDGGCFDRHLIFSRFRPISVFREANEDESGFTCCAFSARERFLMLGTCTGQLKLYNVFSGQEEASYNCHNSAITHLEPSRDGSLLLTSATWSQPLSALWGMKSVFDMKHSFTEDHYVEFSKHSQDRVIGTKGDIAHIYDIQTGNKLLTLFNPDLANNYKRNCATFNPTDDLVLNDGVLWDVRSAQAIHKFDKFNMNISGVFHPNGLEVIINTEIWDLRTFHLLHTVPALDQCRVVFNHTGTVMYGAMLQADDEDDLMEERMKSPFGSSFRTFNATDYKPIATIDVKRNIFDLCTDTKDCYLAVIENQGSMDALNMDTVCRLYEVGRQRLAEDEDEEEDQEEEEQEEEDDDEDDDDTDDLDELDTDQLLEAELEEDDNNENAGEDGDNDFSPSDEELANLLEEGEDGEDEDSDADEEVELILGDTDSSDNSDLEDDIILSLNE
WDR5: WD repeat-containing protein 5 (WDR5, Homo sapiens, UniProt P61964)
DCAF1; 28.6 °C: 8050 a.u.
WDR5; 55.81 °C: 16400 a.u.
DCAF1; 27.6 °C: 7840 a.u.
WDR5; 90.21 °C: 54800 a.u.
WDR5; 39.6 °C: 14100 a.u.
DCAF1; 48.2 °C: 16700 a.u.
WDR5; 28.8 °C: 13500 a.u.
WDR5; 39.2 °C: 14000 a.u.
WDR5; 78.01 °C: 60300 a.u.
WDR5; 38.4 °C: 13900 a.u.
WDR5; 59.41 °C: 15600 a.u.

Sample 3 — organism: Arabidopsis thaliana; strain: Col-0; endpoint: hypocotyl length
SMILES: CCN1C(=O)C(O)(C(=O)O)Oc2cc(F)ccc21 (stereo not shown)
25 µg/mL, seed germination, repetition mean: 1.73 cm
12.5 µg/mL, seed germination, single repetition: 1.81 cm and 1.93 cm and 1.85 cm and 1.8 cm and 1.9 cm
6.25 µg/mL, seed germination, single repetition: 2.07 cm and 1.99 cm and 2.01 cm and 2.12 cm and 2.13 cm
12.5 µg/mL, seed germination, repetition mean: 1.87 cm
100 µg/mL, seed germination, repetition mean: 1.24 cm
3.125 µg/mL, seed germination, repetition mean: 2.22 cm
50 µg/mL, seed germination, repetition mean: 1.63 cm
100 µg/mL, seed germination, single repetition: 1.23 cm and 1.26 cm and 1.24 cm and 1.27 cm
25 µg/mL, seed germination, single repetition: 1.72 cm and 1.7 cm and 1.73 cm and 1.71 cm

Sample 4 — observed: binding; technique: HTRF; endpoint: inhibition
SMILES: Cc1ncc(-c2cc3c(C(F)(F)F)c(-c4c(C)ccc(O)c4C)cnc3[nH]2)cn1
Target: Membrane-associated tyrosine- and threonine-specific cdc2-inhibitory kinase (PKMYT1, Homo sapiens, UniProt Q99640)
Chain of UniProt Q99640 (whole entry, looked up): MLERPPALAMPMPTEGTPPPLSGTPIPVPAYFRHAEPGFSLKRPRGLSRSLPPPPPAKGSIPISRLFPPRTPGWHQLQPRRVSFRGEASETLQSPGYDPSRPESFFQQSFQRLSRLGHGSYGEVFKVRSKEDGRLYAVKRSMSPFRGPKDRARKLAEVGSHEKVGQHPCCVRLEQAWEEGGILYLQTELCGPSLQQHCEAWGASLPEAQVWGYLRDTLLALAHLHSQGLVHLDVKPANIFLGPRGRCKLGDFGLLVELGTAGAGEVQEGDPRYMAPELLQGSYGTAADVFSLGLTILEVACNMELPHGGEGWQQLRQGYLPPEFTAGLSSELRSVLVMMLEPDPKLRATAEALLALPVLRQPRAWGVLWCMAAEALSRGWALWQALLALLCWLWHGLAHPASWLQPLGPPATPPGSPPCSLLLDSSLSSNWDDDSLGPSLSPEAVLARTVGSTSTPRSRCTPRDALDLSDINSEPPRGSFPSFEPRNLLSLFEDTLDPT
1.52 nM: 14.6% and 16.1%
123.46 nM: 94% and 93.3%
13.72 nM: 74.2% and 75.2%
10000 nM: 107%
370.37 nM: 96.4% and 96.5%
41.15 nM: 87.1% and 87.7%
1111.11 nM: 98.5% and 99%
4.57 nM: 40.4% and 39.7%

Sample 5 — SMILES: O=c1[nH]c(=S)n(C[C@H]2CCCO2)c2nc[nH]c12; observed: enzyme activity; endpoint: inhibition
AOC3: Amine oxidase [copper-containing] 3 (AOC3, Homo sapiens, UniProt Q16853)
Chain of UniProt Q16853 (whole entry, looked up): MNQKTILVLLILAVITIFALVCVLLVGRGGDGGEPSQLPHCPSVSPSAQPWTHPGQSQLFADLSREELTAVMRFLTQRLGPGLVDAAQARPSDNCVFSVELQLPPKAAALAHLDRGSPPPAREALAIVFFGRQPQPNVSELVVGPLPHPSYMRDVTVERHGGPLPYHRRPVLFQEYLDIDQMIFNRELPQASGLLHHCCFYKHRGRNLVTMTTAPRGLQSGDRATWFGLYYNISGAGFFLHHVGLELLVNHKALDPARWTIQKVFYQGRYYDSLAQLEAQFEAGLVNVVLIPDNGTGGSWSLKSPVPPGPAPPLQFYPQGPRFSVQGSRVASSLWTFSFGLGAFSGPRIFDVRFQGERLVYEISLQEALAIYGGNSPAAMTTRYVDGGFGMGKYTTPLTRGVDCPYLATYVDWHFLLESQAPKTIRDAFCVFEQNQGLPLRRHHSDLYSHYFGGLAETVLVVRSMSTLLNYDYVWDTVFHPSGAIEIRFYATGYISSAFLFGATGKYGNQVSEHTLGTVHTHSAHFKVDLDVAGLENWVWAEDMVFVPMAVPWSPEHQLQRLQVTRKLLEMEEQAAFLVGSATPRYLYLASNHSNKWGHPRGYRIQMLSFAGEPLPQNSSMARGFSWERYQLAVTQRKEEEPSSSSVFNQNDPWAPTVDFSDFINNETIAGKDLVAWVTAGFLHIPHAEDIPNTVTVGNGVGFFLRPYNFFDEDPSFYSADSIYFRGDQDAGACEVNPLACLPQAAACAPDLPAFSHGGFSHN
MPO: Myeloperoxidase (MPO, Homo sapiens, UniProt P05164)
Chain of UniProt P05164 (whole entry, looked up): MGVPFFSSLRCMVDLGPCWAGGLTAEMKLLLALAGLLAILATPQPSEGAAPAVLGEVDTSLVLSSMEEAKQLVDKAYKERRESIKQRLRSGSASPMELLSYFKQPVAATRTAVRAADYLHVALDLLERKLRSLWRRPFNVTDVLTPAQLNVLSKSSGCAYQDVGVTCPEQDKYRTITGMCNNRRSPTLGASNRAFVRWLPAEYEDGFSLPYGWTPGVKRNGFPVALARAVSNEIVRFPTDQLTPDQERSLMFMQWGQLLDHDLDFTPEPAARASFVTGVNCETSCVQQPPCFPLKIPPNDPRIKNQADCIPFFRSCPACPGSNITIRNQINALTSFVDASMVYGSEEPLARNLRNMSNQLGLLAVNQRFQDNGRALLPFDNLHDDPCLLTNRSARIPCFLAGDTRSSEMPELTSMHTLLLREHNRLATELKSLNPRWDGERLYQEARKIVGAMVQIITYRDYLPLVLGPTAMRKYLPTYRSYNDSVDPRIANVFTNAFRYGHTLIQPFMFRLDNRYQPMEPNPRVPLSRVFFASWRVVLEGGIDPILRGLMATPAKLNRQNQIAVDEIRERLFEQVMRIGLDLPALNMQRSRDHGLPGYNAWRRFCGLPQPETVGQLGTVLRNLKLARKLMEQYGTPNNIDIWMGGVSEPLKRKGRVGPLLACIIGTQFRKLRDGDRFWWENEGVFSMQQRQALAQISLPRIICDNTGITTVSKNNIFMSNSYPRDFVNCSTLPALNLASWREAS
AOC3; Amplex Red H2O2 production; 0.3704 µM: 11.8%
MPO; 0.0046 µM: -1.03% and -12% and -10.8% and -5.85% and -4.86% and 1.99%
AOC3; inhibitor, fluorescence; 0.1111 µM: -22.8%
MPO; 0.0003 µM: -11.3% and -14.6% and -0.139% and -17.1% and -4.04% and 13.7% and -9.14%
AOC3; inhibitor, fluorescence; 3 µM: -69%
MPO; 0.0412 µM: 18.9% and 29.5% and 14.3% and 16.2% and 54.7% and 17% and 30.6%
MPO; 0.0005 µM: 16.3% and -9.07% and -13.4% and -14% and -2.59% and -3.09%
MPO; 5 µM: 99.8% and 99.7% and 99.6% and 100%

Sample 6 — observed: kinase activity; endpoint: inhibition
Compound: CNc1ncc2cc(-c3cc(OC)cc(OC)c3Cl)c(=O)n(CCc3ccc(NC(=O)C(C#N)=CC(C)(C)N4CCOCC4)cc3)c2n1
PRKACA: cAMP-dependent protein kinase catalytic subunit alpha (PRKACA, Homo sapiens, UniProt P17612)
RAF proto-oncogene serine/threonine-protein kinase (RAF1, Homo sapiens, UniProt P04049); 1 µM: 60%
Phosphorylase b kinase gamma catalytic chain, skeletal muscle/heart isoform (PHKG1, Homo sapiens, UniProt Q16816); 0.1 µM: -6%
Aurora kinase C (AURKC, Homo sapiens, UniProt Q9UQB9); 1 µM: 1%
cAMP-dependent protein kinase catalytic subunit beta (PRKACB, Homo sapiens, UniProt P22694); 0.1 µM: 1%
Cyclin-dependent kinase 5 (CDK5, Homo sapiens, UniProt Q00535); 0.1 µM: -1%
Platelet-derived growth factor receptor alpha (PDGFRA, Homo sapiens, UniProt P16234); 0.1 µM: 15%
Vascular endothelial growth factor receptor 1 (FLT1, Homo sapiens, UniProt P17948); 0.1 µM: 40%
Protein kinase C epsilon type (PRKCE, Homo sapiens, UniProt Q02156); 0.1 µM: 1%
Serine/threonine-protein kinase PAK 2 (PAK2, Homo sapiens, UniProt Q13177); 0.1 µM: 1%
Dual specificity mitogen-activated protein kinase kinase 2 (MAP2K2, Homo sapiens, UniProt P36507); 1 µM: 1%
PRKACA; 1 µM: -5%
Serine/threonine-protein kinase Nek7 (NEK7, Homo sapiens, UniProt Q8TDX7); 0.1 µM: -2%
Angiopoietin-1 receptor (TEK, Homo sapiens, UniProt Q02763); 1 µM: 6%
Rhodopsin kinase GRK7 (GRK7, Homo sapiens, UniProt Q8WTQ7); 1 µM: -13%
PRKACA; 0.1 µM: 5%
Fibroblast growth factor receptor 1 (FGFR1, Homo sapiens, UniProt P11362); 0.1 µM: > 90% and 96%
Tyrosine-protein kinase JAK2 (JAK2, Homo sapiens, UniProt O60674); 1 µM: 0%
Macrophage-stimulating protein receptor (MST1R, Homo sapiens, UniProt Q04912); 0.1 µM: 1%
Dual specificity tyrosine-phosphorylation-regulated kinase 4 (DYRK4, Homo sapiens, UniProt Q9NR20); 0.1 µM: -4%
Ephrin type-A receptor 3 (EPHA3, Homo sapiens, UniProt P29320); 1 µM: -12%
Cyclin-dependent kinase 1 (CDK1, Homo sapiens, UniProt P06493); 1 µM: 4%

Sample 7 — observed: binding; technique: competition with immobilised ligand; concentration: 1 µM; endpoint: remaining binding
SMILES: COc1cc(-c2nc3ccc(C(=O)NCCCN4CCN(c5cccc(C)c5C)CC4)cc3n2C2CCC2)cc(OC)c1OC
Phosphatidylinositol 4,5-bisphosphate 3-kinase catalytic subunit alpha isoform (PIK3CA, Homo sapiens, UniProt P42336, H1047Y): 79%
Ribosomal protein S6 kinase alpha-2, C-terminal kinase domain (RPS6KA2, Homo sapiens, UniProt Q15349): 99%
Insulin receptor (INSR, Homo sapiens, UniProt P06213): 89%
Peripheral plasma membrane protein CASK (CASK, Homo sapiens, UniProt O14936): 89%
Epidermal growth factor receptor (EGFR, Homo sapiens, UniProt P00533, G719C): 86%
Interleukin-1 receptor-associated kinase 3 (IRAK3, Homo sapiens, UniProt Q9Y616): 100%
BDNF/NT-3 growth factors receptor (NTRK2, Homo sapiens, UniProt Q16620): 100%
RAC-alpha serine/threonine-protein kinase (AKT1, Homo sapiens, UniProt P31749): 82%
Serine/threonine-protein kinase NIM1 (NIM1K, Homo sapiens, UniProt Q8IY84): 92%
Casein kinase II subunit alpha (CSNK2A1, Homo sapiens, UniProt P68400): 81%
Epidermal growth factor receptor (EGFR, Homo sapiens, UniProt P00533, G719S): 93%
Serine/threonine-protein kinase MRCK alpha (CDC42BPA, Homo sapiens, UniProt Q5VT25): 100%
Serine/threonine-protein kinase 3 (STK3, Homo sapiens, UniProt Q13188): 94%
Epidermal growth factor receptor (EGFR, Homo sapiens, UniProt P00533, L861Q): 76%
MAP kinase-activated protein kinase 2 (MAPKAPK2, Homo sapiens, UniProt P49137): 90%
Mitogen-activated protein kinase 13 (MAPK13, Homo sapiens, UniProt O15264): 100%
Serine/threonine-protein kinase D2 (PRKD2, Homo sapiens, UniProt Q9BZL6): 100%
Tyrosine-protein kinase receptor TYRO3 (TYRO3, Homo sapiens, UniProt Q06418): 97%

Sample 8 — cell line: U-87 MG; concentration: concentration not given; relative to: DMSO; endpoint: log2 fold change
Compound: CCN1/C(=C/C=C2\CCCC(/C=C/C3=[N+](CC)c4ccccc4C3(C)C)=C2NCCCCCCCCN2CCC(Nc3nc4ccccc4n3Cc3ccc(F)cc3)CC2)C(C)(C)c2ccccc21
item: ZDBF2 mRNA: 1.09
item: ZNF474 mRNA: 2.27
item: FAT1 mRNA: 1.23
item: PELI1 mRNA: 2.12
item: GCLC mRNA: 2.31
item: TM4SF18 mRNA: -6.11
item: ATP13A3 mRNA: 1.32
item: SPARC mRNA: -1.7
item: ARSG mRNA: 1.05
item: PPIC mRNA: -0.941
item: RAB11FIP1 mRNA: -3
item: VOPP1 mRNA: -0.819

For quick reference, copied from above (sample 2):
WDR5; 28.8 °C: 13500 a.u.
WDR5; 38.4 °C: 13900 a.u.
WDR5; 59.41 °C: 15600 a.u.
WDR5; 55.81 °C: 16400 a.u.
WDR5; 39.6 °C: 14100 a.u.
DCAF1; 48.2 °C: 16700 a.u.
DCAF1; 27.6 °C: 7840 a.u.
WDR5; 39.2 °C: 14000 a.u.
WDR5; 90.21 °C: 54800 a.u.
WDR5; 78.01 °C: 60300 a.u.
DCAF1; 28.6 °C: 8050 a.u.
